# Assay results collected from several papers.
# Numbered parts are unrelated; each lists some results of a single study. Substitutions count along the parent as printed.

# Study 1
# Target: CCNB2, cyclin fold, Cln2 fusion (human)
# Method: yeast growth competition, sequencing
# Sample: yeast
# Notes: weak parent motif
# Baseline: not given
# Reading: higher = stronger binding
# Starting sequence: MASTL docking peptide (human); PMIAKNLMCELDE
Change,normalised enrichment score
N6H,0.26
A4V,0.662
C9I,0.18
M8S,0.438
E10A,0.321
K5L,0.109
D12V,0.577
C9M,0.676
E10G,-0.237
L7D,-0.093
L7E,0.366
N6A,-0.0226
D12M,0.854
A4D,-0.157
A4W,0.00927
M2F,0.487
C9N,0.637
I3K,0.2
A4I,0.326
E10K,0.615
L7W,-0.208
M8N,-0.141
I3A,-0.0495
E10L,1.31
M8R,0.0859

# Study 2
# Target: Ras GTPase-activating protein-binding protein 1, full length (G3BP1, Homo sapiens, UniProt Q13283)
# Chain of UniProt Q13283 (whole entry, looked up): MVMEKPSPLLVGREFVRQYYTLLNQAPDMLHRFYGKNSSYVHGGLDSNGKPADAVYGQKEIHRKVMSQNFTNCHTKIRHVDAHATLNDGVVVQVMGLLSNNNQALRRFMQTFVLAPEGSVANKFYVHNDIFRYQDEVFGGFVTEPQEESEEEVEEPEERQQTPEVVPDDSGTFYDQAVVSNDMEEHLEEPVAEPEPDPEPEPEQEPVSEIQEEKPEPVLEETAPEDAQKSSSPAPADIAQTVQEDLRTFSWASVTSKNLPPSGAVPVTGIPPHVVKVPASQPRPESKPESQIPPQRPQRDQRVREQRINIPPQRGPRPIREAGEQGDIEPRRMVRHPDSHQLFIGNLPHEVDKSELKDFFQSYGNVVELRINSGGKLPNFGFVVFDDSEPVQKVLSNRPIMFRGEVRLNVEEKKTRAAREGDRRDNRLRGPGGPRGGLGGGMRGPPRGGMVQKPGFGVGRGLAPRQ
# Method: RNA Bind-n-Seq
# Molecule type: RNA
# Sample: in vitro
# Tested at: 200 nM
# Notes: whole 134-nt RNA, ends assumed
# Together with: 150 mM KCl
# Baseline: input library
# Reading: higher = stronger binding
# All sequences stand within: GGGAGUUCUACAGUCCGACGAUC … UGGAAUUCUCGGGUGUCAAGG
Oligonucleotide,log2 enrichment
UGUCAGUAUCAUACAUAACAGAGGAAUGCCUGAAGAAGCUGGACACAAAGCAGCAGACCAACACCCUGCUCAACCUGGUGUGGAGGGACU,-0.499
UGGGAGGUGGAUUUUGUUUAUUUUUUUAGCUCAUUUCCAGGGGUGGGAAUUUUUUUUUAAUAUGUGUCAUGAAUCAAGUUGUUUUUGAAA,0.28
CCUCAAGUCCUGUGCUACACAUCGUAUGUACCGAAUCGGAAAAAGGAGGUGGAAAGUAUUAUGUUACGCCGUUCGGAUCUGCACUUCCAG,-0.121
AAGUCCUGUGCUACACAUCGUAUGUACCGAAUCGGGGUUUUUGGGGUGGGGAGGGGAAAGUAUUAUGUUACGCCGUUCGGAUCUGCACUU,0.98
GCAGGAAGUAAAAACAAAUGGAAAUGCUUCGGAUAGUGGCAGGGGUGGCGGUUGCUAAGGAAAGGGUGGGAUGGGAGUGGGUAAAGAGUU,1.05
UCCUGUGCUACACAUCGUAUGUACCGAAUCGGGGUUUUUGGGGAAAGGGGAAAAAGGGGAAAGUAUUAUGUUACGCCGUUCGGAUCUGCA,0.664
UGUUGGGCUUCGAUCCCAGGUGGAUGAUGAUGCCUUCCUACAUGGACCCACGUAUCACGCCCACUCGGACCCCGGUGGACUUCUACCCCU,0.656
AAGUCCUGUGCUACACAUCGUAUGUACCGAAUCGGGGAAAGGAAAGGGGAAAGGGGAAAGUAUUAUGUUACGCCGUUCGGAUCUGCACUU,0.225
UCCUCAAGUCCUGUGCUACACAUCGUAUGUACCGAAUCGGAGGGAGGAGGGAAAGUAUUAUGUUACGCCGUUCGGAUCUGCACUUCCAGC,-0.252
UAACUUUAGAGGAGGAUCUGAUGGAUAUGGCAGUGGACGUGGAUUUGGGAAUGGCUAUAAUGGGUAUGGAGGAGGACCUGGAGGUGGCAA,0.288
UCCUCAAGUCCUGUGCUACACAUCGUAUGUACCGAAUCGGGAGGAGGGAGGAAAGUAUUAUGUUACGCCGUUCGGAUCUGCACUUCCAGC,-0.239
UCAAGUCCUGUGCUACACAUCGUAUGUACCGAAUCGGGGCCGGGGCCGGGGCCGGAAAGUAUUAUGUUACGCCGUUCGGAUCUGCACUUC,-1.22
GCAGGAAGUAAAAACAAAUGGAAAUGCUUCGGAUAGUGGCAGGGGUGGGGGUUGCUAAGGAAAGGGUGGGAUGGGAAUGGGUAAAGAGUU,0.81
GUCCUGUGCUACACAUCGUAUGUACCGAAUCGGUUUUUGGAAAAAAAGGAAAAAAAGGAAAGUAUUAUGUUACGCCGUUCGGAUCUGCAC,-0.975

# Study 3
# Target: ABI1, truncated, D143A, DHFR fusion (Arabidopsis thaliana)
# Method: DHFR PCA, deep sequencing
# Sample: yeast
# Notes: methotrexate growth selection, single substitutions
# Together with: (+)-ABA 2500 µM
# Baseline: wild-type fitted maximum
# Reading: higher = stronger binding
# Starting sequence: PYL1, truncated, DHFR fusion (Arabidopsis thaliana); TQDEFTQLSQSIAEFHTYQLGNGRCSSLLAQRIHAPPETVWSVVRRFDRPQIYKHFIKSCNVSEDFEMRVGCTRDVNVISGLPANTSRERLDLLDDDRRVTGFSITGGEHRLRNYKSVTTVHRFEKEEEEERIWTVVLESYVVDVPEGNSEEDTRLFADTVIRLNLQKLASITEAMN; partner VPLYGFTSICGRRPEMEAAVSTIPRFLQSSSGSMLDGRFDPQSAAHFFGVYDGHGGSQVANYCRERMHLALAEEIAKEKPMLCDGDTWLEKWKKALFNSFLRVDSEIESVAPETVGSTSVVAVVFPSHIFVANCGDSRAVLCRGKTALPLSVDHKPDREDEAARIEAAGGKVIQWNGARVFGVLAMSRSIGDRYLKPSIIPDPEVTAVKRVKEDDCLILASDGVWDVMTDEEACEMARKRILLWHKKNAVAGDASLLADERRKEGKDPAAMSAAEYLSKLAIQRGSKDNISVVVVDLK
Change,relative binding score
S26H,103%
Q167N,94.1%
G23E,94.9%
Q51P,38.5%
H55L,95.4%
F124R,96.4%
D159C,77.2%
N85V,97.7%
D75Y,96.3%
L94V,95.7%
V136N,68.2%
I52K,95.2%
T106M,107%

# Study 4
# Target: Histone acetyltransferase KAT6A, both winged helices, GST fusion (KAT6A, Homo sapiens, UniProt Q92794, residues 1-181)
# Method: protein binding microarray
# Molecule type: double-stranded DNA, one strand shown
# Sample: in vitro
# Tested at: not given
# Notes: 8-mer, flanks averaged, mean of 2 arrays, mostly near background
# Baseline: not given
# Reading: higher = stronger binding
# Target sequence (chain): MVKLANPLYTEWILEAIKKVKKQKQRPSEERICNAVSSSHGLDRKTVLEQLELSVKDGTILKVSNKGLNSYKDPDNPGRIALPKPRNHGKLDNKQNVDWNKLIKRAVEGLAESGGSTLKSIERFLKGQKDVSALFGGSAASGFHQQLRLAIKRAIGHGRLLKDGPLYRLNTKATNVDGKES
Oligonucleotide,E-score
ACCTGATA,-0.131
AAGTCGTG,-0.0523
CAGATTAA,-0.104
CTACGCGC,0.344
AATATCGT,-0.212
TAGACTCA,-0.0788
CTGACATA,-0.102
GCACATGA,-0.00123
AGTCGGGG,0.0507
GGTCAAAA,-0.12
GATTAATC,-0.0435
ACAGTTCT,0.0831
CGAGGGAA,-0.0727
CTTGCGTA,0.101
AAACCATG,-0.063
AGACTACC,-0.0516
ATGTGGTA,-0.0422
CCAAACCA,-0.117
CTCTATAA,-0.088
CGACCACA,-0.117
AGGGGTCG,-0.195
AGATACGC,0.151
GAATCATA,-0.0894
AGATAACA,-0.143
CATGTACA,-0.0688

# Study 5
# Target: Prothrombin, mature alpha-thrombin (F2, Homo sapiens, UniProt P00734)
# Method: aptamer microarray, sandwich
# Molecule type: DNA with 2'F-ANA
# Sample: in vitro
# Tested at: 200 nM
# Notes: whole 15-mer aptamer, many near background
# Together with: Cy3 exosite-II aptamer, 400 nM
# Reading: higher = stronger binding
# Oligonucleotide: GGTTGGTGTGGTTGG
Modification,mean fluorescence intensity [a.u.]
2'F-ANA at 3 4 5 6 8 9 11 12 14 15,52.2
2'F-ANA at 1 2 3 7 10 11 12 13 14,55.9
2'F-ANA at 3 4 6 7 9 15,531
2'F-ANA at 1 2 3 5 6 7 8 9 10 12,107
2'F-ANA at 1 4 7 10 11 13,46
2'F-ANA at 2 3 5 6 10 13 14 15,48.4
2'F-ANA at 1 2 5 8 9 11 15,121
2'F-ANA at 1 3 5 7 9 11 13,56.1
2'F-ANA at 1 3 4 5 8 9 10 11 12 13 15,50
2'F-ANA at 2 4 9 10 12 13 15,99.1
2'F-ANA at 1 7 8 15,294
2'F-ANA at 2 3 9 13,651
2'F-ANA at 2 3 5 7 9 10 12 14,49.4
2'F-ANA at 2 4 6 8 10 12 15,116
2'F-ANA at 2 3 5 6 8 9,120
2'F-ANA at 1 2 3 4 6 7 8 9 11 12 13,207
2'F-ANA at 3 5 8 14,58.7
2'F-ANA at 1 5 6 10 12 14,47.3
2'F-ANA at 2 3 6 8 10 12 13 14 15,255
2'F-ANA at 1 4 5 6 7 14,50.6
2'F-ANA at 1 5 7 8 9 10 11 15,52.1
2'F-ANA at 2 3 5 6 7 8 9 10 15,52.3
2'F-ANA at 1 2 3 4 7 8 13 15,128
2'F-ANA at 2 3 4 5 7 9 12 14 15,54.1
2'F-ANA at 1 2 3 4 8 15,262
